{"data": "Results of several laboratories", "note": "“And” joins repeats or separate records; there may be more than shown. ± gives the spread as reported."}
{"Compound": "COc1cc2c(NC3CCN(C(C)C)CC3)cc(N3CCOCC3)nc2cc1OCCCN1CCCC1", "assay": "TMT proteomics, refers to: SCG2", "test system": "5xFAD mouse, hippocampus", "conditions": "dose not given", "scale": "reference: wild type", "measurement": "log2 fold change", "result": 0.0784}
{"Compound": "CN1CCC(N[C@@H]2CCc3[nH]c4c(C(N)=O)ccc(-c5ccccc5Cl)c4c3C2)CC1", "assay": "organoid viability, CellTiter-Glo 3D", "test system": "sample A colorectal cancer organoid, human", "conditions": "6 days", "measurement": "IC50", "result": "3.12 nM"}
{"Compound": "COC1OC(C)C(OS(=O)(=O)O)C(OC2OC(C)C(OS(=O)(=O)O)C(OC3OC(C)C(OS(=O)(=O)O)C(OC4OC(C)C(OS(=O)(=O)O)C(OC5OC(C)C(OS(=O)(=O)O)C(OC6OC(C)C(OS(=O)(=O)O)C(OC7OC(C)C(OS(=O)(=O)O)C(OC8OC(C)C(OS(=O)(=O)O)C(OC9OC(C)C(OS(=O)(=O)O)C(OS(=O)(=O)O)C9O)C8O)C7O)C6O)C5O)C4O)C3O)C2O)C1O (centres unmarked)", "test system": "human plasma", "conditions": "128 µg/mL", "scale": "reference: control", "measurement": "APTT prolongation", "result": "1.3 fold"}
{"Compound": "[Cl-].[Cl-].[Ru+2].c1cnc2c(c1)ccc1cccnc12.c1cnc2c(c1)ccc1cccnc12.c1csc(-c2ccc(-c3nc4c5cccnc5c5ncccc5c4[nH]3)s2)c1", "test system": "air-saturated acetonitrile", "scale": "reference: Ru(bpy)3(PF6)2", "measurement": "singlet oxygen quantum yield", "result": 0.73}
{"Compound": "CN1CCC[C@]1(C)/C=C/S(=O)(=O)NC(=O)Nc1c2c(cc3c1CCC3)CCC2", "test system": "human, whole blood ex vivo", "conditions": "400 mg single dose, 12 h, single ascending dose, added: LPS and ATP", "measurement": "IL-18 inhibition", "result": "79.7%"}
{"Compound": "CCCCC(CSS(=O)(=O)O)NCC(C)C (centres unmarked)", "test system": "Swiss Webster mice, Schistosoma mansoni infected", "conditions": "100 mg/kg", "scale": "reference: vehicle control", "measurement": "spleen weight decrease", "result": "15%"}
{"Compound": "CCn1nc(C)c(CN2CCCC(C(=O)c3cccc(OC(C)C)c3)C2)c1C (centres unmarked)", "tested on": "Trypanosoma cruzi", "assay": "reporter mRNA translation, inhibitor, refers to: Renilla luciferase mRNA", "test system": "cell-free extract", "conditions": "concentration not given, test 1", "scale": "reference: positive over negative control", "measurement": "translation activity", "result": "111% and 114%"}
{"Compound": "CNS(=O)(=O)Nc1nccc(Cc2c(C)c3ccc(Oc4ncccc4F)cc3oc2=O)c1F", "tested on": "Aska-SS", "assay": "cell viability, CellTiter-Glo", "conditions": "7 days", "measurement": "IC50", "result": "> 1000 nM"}
{"Compound": "Cc1[nH]nc2c1N=C(c1ccccc1Cl)c1cnc(N3CCOCC3)cc1N2", "test system": "mouse sample F TNBC PDX", "conditions": "oral, 15 mg/kg, 120 h, 5 days per week", "measurement": "tumour growth inhibition", "result": "85%"}
{"Compound": "COc1cc(O)ccc1CCC(c1ccc(O)cc1)c1cc2c(c(C)c1O)OC(c1ccc(O)cc1)CC2 (mixture of isomers)", "test system": "human blood", "conditions": "30 µM, added: A23187", "measurement": "arachidonic acid level", "result": "111000 ± 12200 pg/mL"}
{"Compound": "S=C(S)OC1CC2CC1C1CCCC21 (centres unmarked)", "assay": "LC-MS/MS, refers to: extracellular Leu-enkephalin", "test system": "mouse striatal brain slices", "conditions": "500 µM, 20 min, added: 50 mM KCl", "measurement": "Leu-enkephalin concentration", "result": "602 pM and 580 pM and 378 pM and 759 pM and 1000 pM and 707 pM and 1450 pM and 487 pM"}
{"Compound": "COC1OC(C)C(OC2OC(C)C(OS(=O)(=O)O)C(OC3OC(C)C(OC4OC(C)C(OS(=O)(=O)O)C(OS(=O)(=O)O)C4O)C(OS(=O)(=O)O)C3O)C2O)C(OS(=O)(=O)O)C1O (centres unmarked)", "test system": "human plasma", "conditions": "128 µg/mL", "scale": "reference: control", "measurement": "APTT prolongation", "result": "1.1 fold"}
{"Compound": "Cc1cc2cc(C(=O)N(Cc3ccc(C(F)(F)F)cn3)[C@H](C)c3ncccn3)ccc2nc1N", "assay": "ELISA, refers to: SDMA", "test system": "mouse, HCT-116 MTAP-deleted xenograft, tumour", "conditions": "oral, 100 mg/kg once daily, 7 doses, 4 h after last dose", "scale": "reference: vehicle", "measurement": "inhibition", "result": "86%"}
{"Compound": "CC(CCC(=O)NCc1ccc(C(=O)NO)cc1)C1CCC2C3C(O)CC4CC(O)CCC4(C)C3CCC12C (centres unmarked)", "assay": "refers to: TCA", "test system": "PCK rat (Pkhd1 mutant), portal blood", "conditions": "oral gavage, dose not given, 5 months", "scale": "reference: total bile acids", "measurement": "relative abundance", "result": "18.5%"}
{"Compound": "O=Cn1nnc2ccccc21", "assay": "HPLC-MS", "conditions": "pH 10.2, added: 50 mM N-α-acetyl-lysine", "measurement": "pseudo-first-order rate constant", "result": "0 h⁻¹"}
{"Compound": "COC1OC(C)C(OS(=O)(=O)O)C(OC2OC(C)C(OS(=O)(=O)O)C(OS(=O)(=O)O)C2OS(=O)(=O)O)C1OS(=O)(=O)O (centres unmarked)", "test system": "human plasma", "conditions": "128 µg/mL", "scale": "reference: control", "measurement": "APTT prolongation", "result": "1.4 fold"}
{"Compound": "CN1CCCNC(=O)c2cccc(c2)C(=O)NCCCN(C)CCCNc2cccc3c2C(=O)c2cccc(c2C3=O)NCCC1", "tested on": "SAS", "assay": "RNA-Seq, refers to: CSKMT mRNA", "conditions": "1 µM, 6 h", "scale": "reference: untreated cells", "measurement": "log2 fold change", "result": 1.35}
{"Compound": "CC(=O)[O-].O.O.O.O.[Mn+2].[O-]c1ccc(Br)cc1C=NCCN1CCOCC1", "assay": "superoxide scavenging", "conditions": "200 µM", "measurement": "inhibition", "result": "39.3%"}
{"Compound": "Cc1ccc([N+](=O)[O-])cc1S(=O)(=O)N(C)/N=C/c1cnc2ccc(Br)cn12", "test system": "peripheral blood mononuclear cells, Sézary syndrome patients", "conditions": "200 nM", "measurement": "PI-stained cells", "result": "35.2%"}
{"Compound": "CCCCCCCCCCCCCCCC(=O)OCC(CSC[C@H](N)C(=O)N[C@@H](CO)C(=O)N[C@@H](CCCCN)C(=O)N[C@@H](CCCCN)C(=O)N[C@@H](CCCCN)C(=O)N[C@@H](CCCCN)C(=O)NCCCCCC(=O)N[C@@H](CCCCN)C(=O)N[C@@H](CC(C)C)C(=O)N[C@H](C(=O)N[C@@H](Cc1ccccc1)C(=O)N[C@@H](Cc1ccccc1)C(=O)N[C@@H](Cc1ccc2ccccc2c1)C(=O)O)C(C)C)OC(=O)CCCCCCCCCCCCCCC (some centres unmarked)", "test system": "APP/PS1 mouse, cortex", "conditions": "local injection, dose not given, unit not given", "scale": "reference: injected over adjacent side", "measurement": "GFAP level", "result": "1.56 and 1.06 and 1.16 and 0.648 and 1.17 and 0.813"}
{"Compound": "Oc1cc2c(cc1O)C(c1cccc3ccccc13)NCC2 (centres unmarked)", "assay": "ferrozine", "test system": "cell-free", "conditions": "100 µM, DMSO solvent", "measurement": "Fe2+ chelation", "result": "96.04 ± 0.24%"}
{"Compound": "COc1ccc(S(=O)(=O)N2CCc3ccccc3C2)cc1N1CCN(C(=O)c2ccc(F)cc2C(F)(F)F)CC1", "assay": "CNN cell counting, refers to: tyrosine hydroxylase", "test system": "rat, 6-OHDA lesion model, substantia nigra pars compacta, intact side", "conditions": "0.3 µg/24 h", "measurement": "TH-immunoreactive cell count", "result": "1190 ± 58.3"}
{"Compound": "COC1OC(C)C(OS(=O)(=O)O)C(OC2OC(C)C(OS(=O)(=O)O)C(OC3OC(C)C(OS(=O)(=O)O)C(OC4OC(C)C(OS(=O)(=O)O)C(OC5OC(C)C(OS(=O)(=O)O)C(OC6OC(C)C(OS(=O)(=O)O)C(OS(=O)(=O)O)C6O)C5O)C4O)C3O)C2O)C1O (centres unmarked)", "test system": "human plasma", "conditions": "128 µg/mL", "scale": "reference: control", "measurement": "APTT prolongation", "result": "1.2 fold"}
{"Compound": "COc1ccc(C(=O)CCc2cc(C(CCc3ccc(O)cc3OC)c3ccc(O)cc3)c(O)cc2OC)cc1 (racemic)", "test system": "human blood", "conditions": "0.3 µM, added: A23187", "measurement": "arachidonic acid level", "result": "94300 ± 10600 pg/mL"}
{"Compound": "O=S(=O)(NCc1ccncc1)c1ccc(C2CCCCC2)cc1", "assay": "bulk RNA sequencing", "test system": "CK-p25 mice, female, microglia", "conditions": "intraperitoneal, 0.3 mg/kg daily for 2 weeks, 336 h, genes, PU.1 target, upregulated", "measurement": "PU.1 target genes further upregulated", "result": "1.5%"}
{"Compound": "COc1ccc2c(c1)CN(C(=O)CCN1CCC(Cc3ccccc3)CC1)CC[S+]2[O-] (centres unmarked)", "test system": "patients with paroxysmal atrial fibrillation", "conditions": "unbound concentration 0.3 to 0.8 µM", "measurement": "AF conversion rate", "result": "60%"}
{"Compound": "COc1cc(CN(C)CC2CCCN(CCc3ccccc3F)C2)cc(Cl)c1OC (centres unmarked)", "tested on": "Trypanosoma cruzi", "assay": "reporter mRNA translation, inhibitor, refers to: Renilla luciferase mRNA", "test system": "cell-free extract", "conditions": "concentration not given, test 1", "scale": "reference: positive over negative control", "measurement": "translation activity", "result": "96.9% and 82.5%"}
{"Compound": "COCCOCCOCCNC(=O)Cc1cc(CC(=O)N[C@H]2C[C@H]3C(=O)Nc4cc(OCCOCCOCCOC)cc(n4)C(=O)N4CCC[C@H]4C(=O)Nc4cc(OCCOCCOCCOC)cc(n4)C(=O)N4CCC[C@H]4C(=O)Nc4cc(OCCOCCOCCOC)cc(n4)C(=O)N3C2)cc(CC(=O)N[C@H]2C[C@H]3C(=O)Nc4cc(OCCOCCOCCOC)cc(n4)C(=O)N4CCC[C@H]4C(=O)Nc4cc(OCCOCCOCCOC)cc(n4)C(=O)N4CCC[C@H]4C(=O)Nc4cc(OCCOCCOCCOC)cc(n4)C(=O)N3C2)c1", "assay": "anion binding, ITC", "test system": "phosphate buffer 35 mM", "conditions": "pH 7.4, 298 K, added: sodium sulfate", "measurement": "ΔG", "result": "-17.8 ± 0.1 kJ mol^–1"}
{"Compound": "COC1OC(C)C(OC2OC(C)C(O)C(OS(=O)(=O)O)C2OS(=O)(=O)O)C(OS(=O)(=O)O)C1OS(=O)(=O)O (centres unmarked)", "test system": "human plasma", "conditions": "128 µg/mL", "scale": "reference: control", "measurement": "APTT prolongation", "result": "1.1 fold"}
{"Compound": "O=C(N[C@@H](Cc1ccc(OCCCCC2CCNCC2)cc1)C(=O)O)c1nc2ccccc2o1.O=C(O)C(F)(F)F", "test system": "human, platelet-rich plasma", "conditions": "50 µM, added: thrombin", "measurement": "clot retraction velocity", "result": "0.00488 min⁻¹ and 0.00398 min⁻¹ and 0.007 min⁻¹"}
{"Compound": "CCCCCCCCCCCCCCCC(=O)NCCCC[C@H](N)C(=O)N[C@@H](CC(=O)O)C(=O)N[C@H](C(=O)N[C@@H](Cc1c[nH]cn1)C(=O)N[C@@H](Cc1ccccc1)C(=O)N[C@@H](CCCNC(=N)N)C(=O)N[C@H](C(=O)N[C@@H](Cc1ccccc1)C(=O)N[C@@H](CCCNC(=N)N)C(=O)N[C@@H](CO)C(=O)N[C@@H](Cc1c[nH]cn1)C(=O)N[C@@H](CO)C(=O)N[C@@H](CC(=O)O)C(=O)N[C@@H](Cc1ccc(O)cc1)C(=O)N[C@@H](CCCNC(=N)N)C(=O)N[C@@H](CCCNC(=N)N)C(=O)N[C@H](C(=O)O)[C@@H](C)CC)[C@@H](C)O)[C@@H](C)O", "test system": "C57BL/6J mice, MCD diet-fed", "conditions": "dose not given, 3 weeks, NASH model", "measurement": "blood glucose", "result": "92.5 ± 8.2 mg/dL"}
{"Compound": "COC1CN([C@H]2CC[C@H]([C@@]3(C)Oc4c(Cl)cc(C(=O)NCc5c(SC)cc(C)[nH]c5=O)c(C)c4O3)CC2)C1", "assay": "RNA-seq, refers to: ARHGEF17 mouse homolog", "test system": "mouse, HT-1376 xenograft, whole blood", "conditions": "dose not given", "scale": "reference: vehicle", "measurement": "log2 fold change", "result": 1.13}
{"Compound": "COC1OC(C)C(O)C(OC2OC(C)C(O)C(OC3OC(C)C(O)C(OS(=O)(=O)O)C3OS(=O)(=O)O)C2OS(=O)(=O)O)C1OS(=O)(=O)O (centres unmarked)", "test system": "human plasma", "conditions": "128 µg/mL", "scale": "reference: control", "measurement": "APTT prolongation", "result": "1.1 fold"}
{"Compound": "Nc1nc2cnc(C(=O)N3CCOC[C@@H]3c3ccc(C(F)(F)F)cc3)cc2c2c1COC2", "assay": "ELISA, refers to: SDMA", "test system": "mouse, HCT-116 MTAP wild type xenograft, tumour", "conditions": "oral, 100 mg/kg once daily", "scale": "reference: vehicle", "measurement": "inhibition", "result": "76%"}
{"Compound": "CCCCCc1ccc(S(=O)(=O)N2CC2C(=O)OC)cc1 (centres unmarked)", "test system": "mouse, Lewis lung carcinoma", "conditions": "intraperitoneal, 15 mg/kg, 16 doses, day 16", "measurement": "tumour volume", "result": "754 mm3"}
